Measurements collected from several papers.
Lines come from different studies, so protocols differ.
CDPK1: Calcium-dependent protein kinase 1 (CDPK1, Plasmodium falciparum, UniProt P62344)
Sequence of UniProt P62344 (whole entry, looked up): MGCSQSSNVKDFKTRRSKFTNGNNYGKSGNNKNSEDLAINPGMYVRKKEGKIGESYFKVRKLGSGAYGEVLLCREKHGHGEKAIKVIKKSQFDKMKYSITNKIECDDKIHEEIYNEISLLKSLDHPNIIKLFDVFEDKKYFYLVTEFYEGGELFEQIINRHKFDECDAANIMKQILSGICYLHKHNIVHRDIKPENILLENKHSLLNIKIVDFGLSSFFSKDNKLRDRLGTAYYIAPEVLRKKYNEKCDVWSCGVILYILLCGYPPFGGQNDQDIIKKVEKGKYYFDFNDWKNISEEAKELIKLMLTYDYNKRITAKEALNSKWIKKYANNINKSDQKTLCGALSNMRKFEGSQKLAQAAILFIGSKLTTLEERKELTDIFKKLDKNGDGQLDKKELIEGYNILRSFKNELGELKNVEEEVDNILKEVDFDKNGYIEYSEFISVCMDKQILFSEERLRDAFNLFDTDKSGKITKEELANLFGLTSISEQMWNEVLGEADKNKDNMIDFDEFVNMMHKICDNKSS
Sequence of UniProt P42336 (whole entry, looked up): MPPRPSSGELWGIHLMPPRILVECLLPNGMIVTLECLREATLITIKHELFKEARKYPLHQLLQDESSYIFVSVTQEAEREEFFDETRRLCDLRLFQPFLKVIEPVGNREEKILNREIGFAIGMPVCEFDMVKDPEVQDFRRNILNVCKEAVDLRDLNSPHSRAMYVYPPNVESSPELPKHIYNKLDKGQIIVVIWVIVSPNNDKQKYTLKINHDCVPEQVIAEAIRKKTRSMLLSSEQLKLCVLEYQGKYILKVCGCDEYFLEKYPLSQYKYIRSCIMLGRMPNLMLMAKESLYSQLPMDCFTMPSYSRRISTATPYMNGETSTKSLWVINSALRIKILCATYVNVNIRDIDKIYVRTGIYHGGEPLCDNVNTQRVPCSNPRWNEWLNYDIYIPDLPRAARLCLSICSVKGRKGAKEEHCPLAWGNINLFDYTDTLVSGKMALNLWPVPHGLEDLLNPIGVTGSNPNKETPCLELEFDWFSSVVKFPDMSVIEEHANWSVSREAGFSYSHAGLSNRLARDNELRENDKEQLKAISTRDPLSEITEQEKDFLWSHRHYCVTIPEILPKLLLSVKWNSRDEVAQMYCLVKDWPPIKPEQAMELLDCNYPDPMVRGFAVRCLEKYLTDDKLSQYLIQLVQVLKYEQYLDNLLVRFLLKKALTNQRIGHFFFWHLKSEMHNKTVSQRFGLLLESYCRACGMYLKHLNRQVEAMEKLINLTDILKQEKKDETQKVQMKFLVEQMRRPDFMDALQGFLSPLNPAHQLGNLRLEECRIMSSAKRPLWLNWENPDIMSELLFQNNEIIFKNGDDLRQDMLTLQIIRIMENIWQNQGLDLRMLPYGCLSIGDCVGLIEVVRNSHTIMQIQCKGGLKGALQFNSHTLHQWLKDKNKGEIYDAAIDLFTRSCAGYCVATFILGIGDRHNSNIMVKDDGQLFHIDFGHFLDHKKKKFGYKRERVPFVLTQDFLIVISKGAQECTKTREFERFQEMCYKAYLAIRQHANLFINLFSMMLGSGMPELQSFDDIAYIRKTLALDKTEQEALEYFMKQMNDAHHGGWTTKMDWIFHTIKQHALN
Sequence of UniProt Q9NSY1 (whole entry, looked up): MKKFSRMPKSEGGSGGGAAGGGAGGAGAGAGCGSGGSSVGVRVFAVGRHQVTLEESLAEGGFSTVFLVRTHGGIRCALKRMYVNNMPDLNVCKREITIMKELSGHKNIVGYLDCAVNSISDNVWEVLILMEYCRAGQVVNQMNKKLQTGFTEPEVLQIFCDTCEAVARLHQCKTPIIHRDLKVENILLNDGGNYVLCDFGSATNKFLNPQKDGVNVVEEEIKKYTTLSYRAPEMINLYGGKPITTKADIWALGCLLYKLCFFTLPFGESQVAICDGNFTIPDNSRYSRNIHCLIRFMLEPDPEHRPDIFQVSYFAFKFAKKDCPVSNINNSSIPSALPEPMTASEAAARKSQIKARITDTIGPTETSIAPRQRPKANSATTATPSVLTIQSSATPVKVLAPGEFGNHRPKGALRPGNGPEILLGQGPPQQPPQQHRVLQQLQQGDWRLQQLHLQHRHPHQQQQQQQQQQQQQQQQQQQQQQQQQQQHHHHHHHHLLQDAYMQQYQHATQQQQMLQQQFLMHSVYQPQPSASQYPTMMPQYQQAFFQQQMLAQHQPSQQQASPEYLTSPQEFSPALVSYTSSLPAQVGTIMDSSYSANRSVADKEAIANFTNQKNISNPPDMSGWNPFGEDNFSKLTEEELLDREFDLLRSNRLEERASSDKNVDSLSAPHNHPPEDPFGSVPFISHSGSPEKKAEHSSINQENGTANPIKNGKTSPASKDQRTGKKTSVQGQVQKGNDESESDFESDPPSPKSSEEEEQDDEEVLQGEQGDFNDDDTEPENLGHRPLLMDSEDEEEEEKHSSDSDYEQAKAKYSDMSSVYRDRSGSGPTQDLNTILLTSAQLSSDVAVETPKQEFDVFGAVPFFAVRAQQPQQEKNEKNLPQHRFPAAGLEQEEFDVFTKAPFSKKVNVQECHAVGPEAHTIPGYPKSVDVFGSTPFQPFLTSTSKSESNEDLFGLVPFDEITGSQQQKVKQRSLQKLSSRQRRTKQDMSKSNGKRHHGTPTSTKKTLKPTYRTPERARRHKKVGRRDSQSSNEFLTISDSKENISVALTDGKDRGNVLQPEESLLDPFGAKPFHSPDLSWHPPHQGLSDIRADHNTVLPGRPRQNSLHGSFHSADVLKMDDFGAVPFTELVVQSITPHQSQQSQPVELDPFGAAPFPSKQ
Sequence of UniProt Q9P0L2 (whole entry, looked up): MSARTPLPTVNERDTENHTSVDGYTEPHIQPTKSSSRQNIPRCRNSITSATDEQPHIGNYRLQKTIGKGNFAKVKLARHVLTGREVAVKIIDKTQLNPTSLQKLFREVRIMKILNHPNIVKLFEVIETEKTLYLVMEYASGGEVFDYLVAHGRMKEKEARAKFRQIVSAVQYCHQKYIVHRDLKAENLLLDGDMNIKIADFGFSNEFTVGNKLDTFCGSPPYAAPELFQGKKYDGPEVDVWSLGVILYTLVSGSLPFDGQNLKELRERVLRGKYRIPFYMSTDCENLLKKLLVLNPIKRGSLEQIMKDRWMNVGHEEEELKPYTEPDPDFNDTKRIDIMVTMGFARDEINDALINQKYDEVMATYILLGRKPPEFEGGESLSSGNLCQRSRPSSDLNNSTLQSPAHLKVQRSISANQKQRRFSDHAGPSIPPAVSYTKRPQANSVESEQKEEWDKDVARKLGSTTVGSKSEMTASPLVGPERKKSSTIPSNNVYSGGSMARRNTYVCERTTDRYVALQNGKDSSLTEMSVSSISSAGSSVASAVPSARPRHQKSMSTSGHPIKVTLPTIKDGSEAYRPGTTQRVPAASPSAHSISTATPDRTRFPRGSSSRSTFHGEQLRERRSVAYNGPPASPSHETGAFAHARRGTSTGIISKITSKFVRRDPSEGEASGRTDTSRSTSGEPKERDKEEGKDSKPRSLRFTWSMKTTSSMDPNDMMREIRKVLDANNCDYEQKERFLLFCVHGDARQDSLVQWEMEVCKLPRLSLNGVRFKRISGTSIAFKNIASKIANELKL
Sequence of UniProt P21127 (whole entry, looked up): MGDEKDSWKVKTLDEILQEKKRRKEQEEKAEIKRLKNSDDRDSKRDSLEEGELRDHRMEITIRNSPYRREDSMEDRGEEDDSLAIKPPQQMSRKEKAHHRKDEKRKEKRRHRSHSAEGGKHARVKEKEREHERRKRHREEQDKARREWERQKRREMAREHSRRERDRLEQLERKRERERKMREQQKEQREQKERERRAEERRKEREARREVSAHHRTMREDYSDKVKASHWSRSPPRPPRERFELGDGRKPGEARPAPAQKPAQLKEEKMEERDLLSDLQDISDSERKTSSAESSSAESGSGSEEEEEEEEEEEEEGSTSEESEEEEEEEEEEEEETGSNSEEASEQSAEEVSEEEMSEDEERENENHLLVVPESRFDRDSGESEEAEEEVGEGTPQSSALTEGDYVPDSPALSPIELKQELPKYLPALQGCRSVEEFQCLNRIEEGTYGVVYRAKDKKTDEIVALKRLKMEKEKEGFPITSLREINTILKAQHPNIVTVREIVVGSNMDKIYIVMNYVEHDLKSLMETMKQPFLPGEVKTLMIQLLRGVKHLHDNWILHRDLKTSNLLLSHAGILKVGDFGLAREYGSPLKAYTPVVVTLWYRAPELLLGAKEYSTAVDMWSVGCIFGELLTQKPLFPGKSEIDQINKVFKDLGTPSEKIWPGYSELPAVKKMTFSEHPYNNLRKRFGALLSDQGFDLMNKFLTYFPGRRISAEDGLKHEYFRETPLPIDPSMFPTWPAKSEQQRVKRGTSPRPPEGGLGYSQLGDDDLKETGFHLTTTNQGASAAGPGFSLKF
Sequence of UniProt Q9BQI3 (whole entry, looked up): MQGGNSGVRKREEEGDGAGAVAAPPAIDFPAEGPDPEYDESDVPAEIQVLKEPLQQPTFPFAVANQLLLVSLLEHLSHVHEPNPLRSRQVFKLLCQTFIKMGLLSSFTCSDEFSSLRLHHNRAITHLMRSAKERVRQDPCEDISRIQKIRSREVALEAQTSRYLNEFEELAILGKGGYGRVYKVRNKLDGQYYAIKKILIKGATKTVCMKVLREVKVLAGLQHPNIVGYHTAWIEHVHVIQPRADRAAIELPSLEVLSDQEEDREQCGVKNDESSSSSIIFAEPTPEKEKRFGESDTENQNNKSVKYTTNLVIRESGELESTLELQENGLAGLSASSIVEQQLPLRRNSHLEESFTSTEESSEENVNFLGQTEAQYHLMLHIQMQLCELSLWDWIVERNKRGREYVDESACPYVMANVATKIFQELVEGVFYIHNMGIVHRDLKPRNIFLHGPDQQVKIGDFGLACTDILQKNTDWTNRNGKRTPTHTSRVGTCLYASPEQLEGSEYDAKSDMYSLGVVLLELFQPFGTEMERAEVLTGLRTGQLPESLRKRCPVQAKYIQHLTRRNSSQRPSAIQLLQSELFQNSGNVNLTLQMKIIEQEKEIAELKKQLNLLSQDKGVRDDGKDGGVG

| SMILES | tested on | assay | system | setting | endpoint | result |
| --- | --- | --- | --- | --- | --- | --- |
| O=c1nc(N2CCN(CC3CCCCC3)CC2)sc2c([N+](=O)[O-])cc(C(F)(F)F)cc12 |  |  | CD-1 mouse, lung | intravenous, 10 mg/kg, 4.98 min | concentration | 4210 ng/mL |
| CCCCC(=O)Nc1ccc(-c2ccc3ncn(CCC)c(=O)c3c2)cn1 | CDK11B (Homo sapiens, UniProt P21127) | binding, competition with immobilised ligand |  | 0.5 µM | remaining binding | 100% |
| c1cnn2ncc(-c3ccnc(N4CCC45COC5)n3)c2c1 | CDPK1 | binding |  | 1 µM | remaining binding | 35% |
| COc1cccc(-c2n[nH]c(SCc3ccccn3)n2)c1OC |  |  | male Sprague-Dawley rat, plasma | oral, 30 mg/kg, 4 h, single dose | concentration | 2170 ng/mL |
| N[C@H]1CCN(c2nccc(-c3cnn4ncccc34)n2)C1 | CDK19 (Homo sapiens, UniProt Q9BWU1) | binding |  | 1 µM | remaining binding | 100% |
| Cc1cc([C@@H](C)Nc2ccccc2C(=O)O)c2nc(N3CCC(F)(F)CC3)c(C#N)c(=O)n2c1 | PIK3CA (Homo sapiens, UniProt P42336) | binding, competition with immobilised ligand |  | 1 µM | remaining binding | 100% |
| FC(F)(F)Oc1cccc(-c2cnc3ccc(-c4ccncc4)nn23)c1 | PIK3CG (Homo sapiens, UniProt P48736) | cell-free assay, competition with immobilised ligand |  | 5 µM | remaining binding | 0.9% |
| CNc1ncc2c(/C=C/C(=O)N3CCC(OC)CC3)nn(Cc3cccc(C(F)(F)F)c3)c2n1 | PAK5 (Homo sapiens, UniProt Q9P286) | enzyme activity, inhibitor, radiometric |  | 1 µM | remaining activity | 93% |
| Cc1cc(S(=O)(=O)N[C@H]2CC[C@H](CN3CCN(c4ccc(C5CCC(=O)NC5=O)cc4F)CC3)CC2)ccc1Nc1ncc(C(F)(F)F)c(N2CCC[C@](C)(O)C2)n1 (stereo partly drawn) | BMP2K (Homo sapiens, UniProt Q9NSY1) | binding, competition with immobilised ligand |  | 1 µM | remaining binding | 75% |
| COc1cc(-c2cncc3c2CN(C)Cc2cc(N4CCNCC4)ccc2-3)cc(OC)c1OC | MARK1 (Homo sapiens, UniProt Q9P0L2) | enzyme activity, inhibitor |  | 1 µM | remaining activity | 103% |
| C1=C/COCc2cc(ccc2OCCN2CCCC2)Nc2nccc(n2)-c2cccc(c2)COC/1 | EPHB3 (Homo sapiens, UniProt P54753) | binding |  | 0.1 µM | remaining binding | 100% |
| Cc1cccc(N(O)N=Nc2ccc(S(=O)(=O)Nc3cc(C)on3)cc2)c1 |  | DPPH scavenging, absorbance |  | 120 µg/mL | inhibition | 32.4% |
| C=CC(=O)N1CCC(COCC(=O)N2CCN(c3nc(-c4cnc(N)nc4C(F)F)nc(N4CCOC[C@@H]4C)n3)CC2)CC1 | EIF2AK1 (Homo sapiens, UniProt Q9BQI3) | binding, competition with immobilised ligand |  | 1 µM | remaining binding | 81% |
| COc1ccc2oc(-c3ccc4nc(N)oc4c3)c/c(=N\c3ccccc3NC(=O)CCN)c2c1 | CILK1 (Homo sapiens, UniProt Q9UPZ9) | binding |  | 1 µM | remaining binding | 95% |
| CN(CCCC(F)(F)F)c1nccc(-c2cnn3ncccc23)n1 | CDPK1 | binding |  | 1 µM | remaining binding | 98% |
